# Measurements from different studies.
# Numbered parts are unrelated; each lists some results of a single study. Substitutions count along the parent as printed.

# Sample 1 — target: CCND2, cyclin fold, Cln2 fusion (human); technique: yeast growth competition, sequencing; matrix: yeast; setting: weak parent motif; baseline: not given; direction: higher = stronger binding
# Starting sequence: SCAPER docking peptide (human); SNARRSLNFGGST
Change,normalised enrichment score
G10F,0.101
F9K,0.154
A3R,-0.107
A3D,-0.135
T13P,0.717

# Sample 2 — technique: protein-binding microarray; molecule type: double-stranded DNA, one strand shown; matrix: in vitro; concentration: 250 nM; setting: 60-bp whole probe; with: salmon DNA 0.4 mg/ml; baseline: random background probes; direction: higher = stronger binding; constant ends, left off below: GCCTAGCAC … GTCTTGATTCGCTTGACGCTGCTG
# Target: Interferon regulatory factor 5, full length, phosphomimetic (IRF5, Homo sapiens, UniProt Q13568-2, residues 1-514, K96S/S451D/S453D/S456D/S462D)
Strand,log fluorescence
CACGGTTTCCTTTCCCTGACGTGCTAG,1.23 z-score
TTAGATTTAAGTATCGATTAGTGCTAG,7.34 z-score
GACGGTTTGGGGACTGGGGACGTGCTA,-0.0308 z-score
TTAGGTCTCCTACTCCTTTAGTGCTAG,-0.128 z-score
GACGGTTCCCTTTTCCTGCCGTGCTAG,0.049 z-score
TCATCTCTGCTTCTGTAACTGTGCTAG,0.395 z-score
GAGGGTATCGACTATCGGGACGTGCTA,2.86 z-score
TCATATATATTGTTAGTACTGTGCTAG,0.565 z-score

# Sample 3 — technique: protein binding microarray; molecule type: double-stranded DNA, one strand shown; matrix: in vitro; concentration: not given; baseline: not given; direction: higher = stronger binding
# Target: Histone acetyltransferase KAT6A, both winged helices, GST fusion (KAT6A, Homo sapiens, UniProt Q92794, residues 1-181)
# Setting: 8-mer, flanks averaged, mean of 2 arrays, mostly near background
# Target sequence (chain): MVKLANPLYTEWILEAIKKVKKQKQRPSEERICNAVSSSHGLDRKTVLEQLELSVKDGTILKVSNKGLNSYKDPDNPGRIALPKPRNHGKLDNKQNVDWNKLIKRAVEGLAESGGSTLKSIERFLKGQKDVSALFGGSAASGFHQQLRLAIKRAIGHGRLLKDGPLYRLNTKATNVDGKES
Strand,E-score
AGTAAATA,-0.0496
CGATGTCC,0.204
ACTGGCAC,-0.13
ACATGCAC,-0.0906
ATAATTGA,-0.00046
CTGGGTCA,-0.188
AGCATTAA,-0.17
ACCCTGTA,-0.123

# Single results of other studies
Substance,target,assay,system,conditions,how to read,quantity,result
"PhoQ, residues 284 288 289 292 302 303 NSMLDC","PhoP, residues 12 14 15 18 19 SEGLL (Escherichia coli, UniProt P23836)","Sort-seq, refers to: YFP reporter",E. coli,"PhoQ-PhoP variant library, with: 10 µM Mg2+","baseline: high Mg2+ state, higher = stronger signaling",fold induction,18.1

# A few entries again (sample 3):
Strand,E-score
ACATGCAC,-0.0906
AGTAAATA,-0.0496
